Measured values from different studies.
Protocols differ between the studies behind these lines. Numbers after ± are the reported error.
MED23 with ELF3: Mediator of RNA polymerase II transcription subunit 23, with ELF3 (MED23, Homo sapiens, UniProt Q9ULK4)
TP53 M133L/N239Y/N268D/V203A DNA-binding domain: Cellular tumor antigen p53, DNA-binding domain (TP53, Homo sapiens, UniProt P04637, M133L/N239Y/N268D/V203A)
GRM2: Metabotropic glutamate receptor 2 (GRM2, Homo sapiens, UniProt Q14416)
Chain of UniProt Q14416 (whole entry, looked up): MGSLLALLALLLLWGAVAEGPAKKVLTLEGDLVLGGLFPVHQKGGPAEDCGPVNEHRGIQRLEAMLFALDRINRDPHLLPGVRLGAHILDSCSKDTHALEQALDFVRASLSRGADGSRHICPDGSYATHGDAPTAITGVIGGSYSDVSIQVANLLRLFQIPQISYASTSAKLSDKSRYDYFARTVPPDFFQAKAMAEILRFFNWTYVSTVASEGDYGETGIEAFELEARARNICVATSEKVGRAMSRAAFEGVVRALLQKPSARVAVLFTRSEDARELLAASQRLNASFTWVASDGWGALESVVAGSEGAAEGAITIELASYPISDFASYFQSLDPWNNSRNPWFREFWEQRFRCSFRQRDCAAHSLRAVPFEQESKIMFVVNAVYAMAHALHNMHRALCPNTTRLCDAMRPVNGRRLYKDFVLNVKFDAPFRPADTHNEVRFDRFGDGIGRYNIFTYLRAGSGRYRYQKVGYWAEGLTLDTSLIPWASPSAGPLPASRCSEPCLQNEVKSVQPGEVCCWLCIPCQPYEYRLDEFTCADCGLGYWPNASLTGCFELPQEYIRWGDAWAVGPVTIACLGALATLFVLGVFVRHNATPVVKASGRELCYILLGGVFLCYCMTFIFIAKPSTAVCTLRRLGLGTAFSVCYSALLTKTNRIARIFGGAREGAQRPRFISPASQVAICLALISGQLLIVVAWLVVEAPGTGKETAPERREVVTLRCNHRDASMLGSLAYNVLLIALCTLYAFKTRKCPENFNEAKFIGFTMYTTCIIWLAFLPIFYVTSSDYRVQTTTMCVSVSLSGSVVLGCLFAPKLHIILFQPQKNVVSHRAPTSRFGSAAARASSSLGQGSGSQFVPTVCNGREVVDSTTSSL
TP53 M133L/N239Y/N268D/V203A/Y220C DNA-binding domain: Cellular tumor antigen p53, DNA-binding domain (TP53, Homo sapiens, UniProt P04637, M133L/N239Y/N268D/V203A/Y220C)
crk3 with CYC6: crk3, with CYC6 (Leishmania mexicana, UniProt O15851)
GPR35: G-protein coupled receptor 35 (GPR35, Homo sapiens, UniProt Q9HC97)
Chain of UniProt Q9HC97 (whole entry, looked up): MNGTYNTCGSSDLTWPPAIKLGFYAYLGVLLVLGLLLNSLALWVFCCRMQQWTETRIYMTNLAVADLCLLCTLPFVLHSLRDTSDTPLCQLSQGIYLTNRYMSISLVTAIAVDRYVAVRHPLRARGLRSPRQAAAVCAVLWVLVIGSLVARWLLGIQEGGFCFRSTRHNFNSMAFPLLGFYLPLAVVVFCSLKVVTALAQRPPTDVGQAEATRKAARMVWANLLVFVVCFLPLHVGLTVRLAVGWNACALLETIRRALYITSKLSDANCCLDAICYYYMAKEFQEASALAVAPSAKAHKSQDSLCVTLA
Chain of UniProt P49336 (whole entry, looked up): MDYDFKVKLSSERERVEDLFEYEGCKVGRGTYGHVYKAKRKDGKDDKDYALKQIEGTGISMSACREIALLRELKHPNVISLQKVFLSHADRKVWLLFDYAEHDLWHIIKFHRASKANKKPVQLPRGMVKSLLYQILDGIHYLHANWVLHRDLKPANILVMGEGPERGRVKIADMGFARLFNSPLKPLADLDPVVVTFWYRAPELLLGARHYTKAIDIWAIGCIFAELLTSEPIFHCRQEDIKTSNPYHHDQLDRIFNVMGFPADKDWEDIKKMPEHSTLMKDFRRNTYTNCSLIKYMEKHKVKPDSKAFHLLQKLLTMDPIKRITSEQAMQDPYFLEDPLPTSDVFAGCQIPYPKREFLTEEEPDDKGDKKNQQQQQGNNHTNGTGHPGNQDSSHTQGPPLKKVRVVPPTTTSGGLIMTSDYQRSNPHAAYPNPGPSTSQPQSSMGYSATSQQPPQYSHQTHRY
Chain of UniProt P07339 (whole entry, looked up): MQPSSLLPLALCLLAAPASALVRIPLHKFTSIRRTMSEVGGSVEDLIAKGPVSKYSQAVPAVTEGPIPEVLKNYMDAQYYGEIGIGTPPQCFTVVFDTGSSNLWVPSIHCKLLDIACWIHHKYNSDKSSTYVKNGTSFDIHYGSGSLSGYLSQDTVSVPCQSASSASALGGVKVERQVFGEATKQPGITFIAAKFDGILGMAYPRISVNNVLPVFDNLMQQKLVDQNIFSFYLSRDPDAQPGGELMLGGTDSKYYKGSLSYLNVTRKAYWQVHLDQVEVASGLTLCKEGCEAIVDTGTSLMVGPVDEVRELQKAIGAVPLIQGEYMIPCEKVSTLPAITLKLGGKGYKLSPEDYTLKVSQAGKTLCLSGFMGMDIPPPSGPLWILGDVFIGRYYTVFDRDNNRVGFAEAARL
Chain of UniProt O94925 (whole entry, looked up): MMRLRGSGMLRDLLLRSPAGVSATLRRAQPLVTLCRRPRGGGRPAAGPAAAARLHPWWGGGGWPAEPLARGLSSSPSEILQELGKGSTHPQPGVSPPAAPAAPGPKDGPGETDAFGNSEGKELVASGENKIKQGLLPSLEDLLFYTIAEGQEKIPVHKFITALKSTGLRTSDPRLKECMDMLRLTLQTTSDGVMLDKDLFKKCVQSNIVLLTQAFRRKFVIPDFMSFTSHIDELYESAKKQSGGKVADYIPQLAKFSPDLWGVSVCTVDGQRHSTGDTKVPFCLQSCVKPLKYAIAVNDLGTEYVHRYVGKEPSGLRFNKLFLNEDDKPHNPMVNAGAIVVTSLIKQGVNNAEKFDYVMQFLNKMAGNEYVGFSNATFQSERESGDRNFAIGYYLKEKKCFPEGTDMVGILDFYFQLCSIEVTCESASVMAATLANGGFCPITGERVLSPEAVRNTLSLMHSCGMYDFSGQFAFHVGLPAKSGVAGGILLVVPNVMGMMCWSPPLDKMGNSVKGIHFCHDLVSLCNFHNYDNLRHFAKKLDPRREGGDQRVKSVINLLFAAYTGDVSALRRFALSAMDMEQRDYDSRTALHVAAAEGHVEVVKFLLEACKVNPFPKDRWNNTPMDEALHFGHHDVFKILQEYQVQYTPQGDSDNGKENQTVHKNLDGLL

Structure (SMILES) = O=C(C=Cc1ccc(O)cc1)c1cccc(O)c1; tested on = MED23 with ELF3; assay = SEAP reporter gene, inhibitor; conditions = 10 µM, 12 h; measurement = inhibition; result = 60%
Structure (SMILES) = N#Cc1ccc(C2CC(c3ccccc3O)=NN2c2ccccc2)cc1 (stereo not shown); tested on = HeLa; assay = cell viability, MTT; conditions = 72 h; measurement = EC50; result = > 500 µM
Structure (SMILES) = CC(C)C[C@H](NC(=O)[C@@H](NC(=O)[C@H](CCONC(=N)N)NC(=O)OCc1ccccc1)C(C)C)[C@@H](O)CC(=O)NCCc1ccccc1; tested on = Cathepsin D (CTSD, Homo sapiens, UniProt P07339); assay = enzyme activity, inhibitor; measurement = IC50; result = 0.52 µM
Structure (SMILES) = Cc1cc(C#N)cnc1Cl; tested on = TP53 M133L/N239Y/N268D/V203A DNA-binding domain; assay = DSF; conditions = 1 mM, up to 24 h; measurement = delta Tm; result = no effect
Structure (SMILES) = FC(F)(F)c1c(-c2ccc(N3CCNCC3)c(Cl)c2)ccn2c(CC3CC3)nnc12; tested on = GRM2; assay = GTPγS binding, positive allosteric modulator; conditions = together with: EC20 glutamate; how to read = baseline: control glutamate response; measurement = Emax; result = 308 ± 31%
Structure (SMILES) = CN1CCN(c2nn3c(-c4ccc(F)cc4)nnc3c3ccccc23)CC1; tested on = iron(III); assay = UV-Vis titration; conditions = stoichiometry 1; measurement = binding constant; result = < 10 M⁻¹
Structure (SMILES) = Cc1nc(C#N)cnc1Cl; tested on = TP53 M133L/N239Y/N268D/V203A/Y220C DNA-binding domain; assay = differential scanning fluorimetry; conditions = 1 mM, 20 °C; measurement = time to maximal ΔTm; result = 3 h
Structure (SMILES) = CCCCn1ccn2c(-c3ccc(Oc4ccnc(C)c4)c(F)c3)c(C)nc2c1=O; tested on = GRM2; assay = G protein activation, positive allosteric modulator; conditions = together with: glutamate at EC20; how to read = baseline: glutamate response; measurement = Emax; result = 277%
Structure (SMILES) = O=C(O)COc1ccc(Br)cc1C=NNC(=O)Cc1ccccc1 (mixture of isomers); system = mouse, PTZ-induced seizures; conditions = oral, 20 mg/kg, 0.5 h, together with: PTZ 85 mg/kg i.p.; measurement = seizure protection; result = 100%
Structure (SMILES) = O=C(Nc1cc(-c2ccccc2)n[nH]1)C1COc2ccccc2O1 (stereo not shown); tested on = crk3 with CYC6; assay = IMAP fluorescence polarisation; conditions = 30 µM, with L. major CYC6; measurement = inhibition; result = 86%
Structure (SMILES) = COc1ccc(CNc2ccc(-c3ccn4c(CC5CC5)nnc4c3C(F)(F)F)cc2F)cn1; tested on = GRM2; assay = GTPγS binding, positive allosteric modulator; conditions = together with: EC20 glutamate; how to read = baseline: control glutamate response; measurement = Emax; result = 262 ± 21%
Structure (SMILES) = O=C(O)c1cc(O)ccc1O; tested on = GPR35; assay = dynamic mass redistribution, agonist; system = HT-29; measurement = maximal response; result = 309 ± 19 pm
Structure (SMILES) = FC(F)(F)c1c(-c2ccc(NC3CCOCC3)c(Cl)c2)ccn2c(CC3CC3)nnc12; tested on = GRM2; assay = GTPγS binding, positive allosteric modulator; conditions = together with: EC20 glutamate; how to read = baseline: control glutamate response; measurement = Emax; result = 353%
Structure (SMILES) = CCCCCC(=O)OCn1cc(F)c(=O)[nH]c1=O; assay = metabolic stability; system = Sprague-Dawley rat, liver; conditions = 80 µg/mL; measurement = half-life; result = < 4.98 min
Structure (SMILES) = CCc1nc(C#N)c(Cl)nc1Cl; tested on = TP53 M133L/N239Y/N268D/V203A DNA-binding domain; assay = differential scanning fluorimetry; conditions = 1 mM, 30 min; measurement = ΔTm; result = -4.85 °C
Structure (SMILES) = FC(F)(F)c1c(-c2ccc3c(ccn3-c3cccnc3)c2)ccn2c(CC3CC3)nnc12; tested on = GRM2; assay = GTPγS binding, positive allosteric modulator; conditions = together with: EC20 glutamate; how to read = baseline: control glutamate response; measurement = Emax; result = 424%
Structure (SMILES) = N#Cc1cnc(Br)cn1; tested on = TP53 M133L/N239Y/N268D/V203A/Y220C DNA-binding domain; assay = DSF; conditions = 1 mM, 30 min, 20 °C; measurement = delta Tm; result = 1.65 °C
Structure (SMILES) = CCCCn1ccn2c(-c3ccc(NC4CCOCC4)c(Cl)c3)c(C)nc2c1=O; tested on = GRM2; assay = agonist; conditions = no glutamate; measurement = Emax; result = 39%
Structure (SMILES) = Cc1cc(C#N)cnc1F; tested on = TP53 M133L/N239Y/N268D/V203A DNA-binding domain; assay = DSF; conditions = 1 mM, up to 24 h; measurement = delta Tm; result = no effect
Structure (SMILES) = C(=N\Nc1nnc(N/N=C/c2ccco2)c2ccccc12)/c1ccco1; tested on = iron(III); assay = UV-Vis titration; conditions = stoichiometry 2; measurement = binding constant; result = 1.51e+10 M⁻²
Structure (SMILES) = CCC(=O)N1N=C(c2cccc(O)c2)CC1c1ccc(OC)cc1 (stereo not shown); tested on = MED23 with ELF3; assay = SEAP reporter gene, inhibitor; conditions = 10 µM, 12 h; measurement = inhibition; result = 87%
Structure (SMILES) = CN1CCN(c2nn3c(-c4ccc([N+](=O)[O-])cc4)nnc3c3ccccc23)CC1; tested on = iron(III); assay = UV-Vis titration; conditions = stoichiometry 1; measurement = binding constant; result = < 10 M⁻¹
Structure (SMILES) = COc1ccc(C=CC(=O)c2ccccc2O)cc1; tested on = MED23 with ELF3; assay = SEAP reporter gene, inhibitor; conditions = 10 µM, 12 h; measurement = inhibition; result = 90%
Structure (SMILES) = Cc1nc(Cl)cnc1C#N; tested on = TP53 M133L/N239Y/N268D/V203A/Y220C DNA-binding domain; assay = DSF; conditions = 1 mM, 4 h, 20 °C; measurement = delta Tm; result = 1.28 °C
Structure (SMILES) = Cc1cc(NC(=O)c2ccc(Oc3ccccc3)cc2)[nH]n1; tested on = crk3 with CYC6; assay = IMAP fluorescence polarisation; conditions = 30 µM, with L. major CYC6; measurement = inhibition; result = 7%
Structure (SMILES) = O=C(C=Cc1cccs1)c1ccccc1O; tested on = MED23 with ELF3; assay = SEAP reporter gene, inhibitor; conditions = 10 µM, 12 h; measurement = inhibition; result = 50%
Structure (SMILES) = CC[C@H](C)[C@@H]1NC(=O)[C@H](CC(C)C)NC(=O)[C@H](Cc2ccccc2)NC(=O)[C@H](Cc2ccccc2)NC(=O)[C@@H]2CCCN2C(=O)[C@@H]2CCCN2C(=O)[C@H](C(C)C)NC(=O)[C@H](CC(C)C)NC(=O)[C@H]([C@@H](C)CC)NC1=O; tested on = SK-BR-3; assay = LDH release; conditions = 400 µg/mL, 24 h; measurement = cytotoxicity; result = 75%
Structure (SMILES) = COc1ccc2nc3c(cc2c1)c(=O)cc(C(F)(F)F)n3-c1ccc(Cl)cc1; tested on = iron(III); assay = UV-Vis titration; conditions = stoichiometry 1; measurement = binding constant; result = 30 M⁻¹
Structure (SMILES) = O=C(O)C(=O)Cc1ccc(O)cc1; tested on = GPR35; assay = β-arrestin translocation, agonist, Tango reporter; system = U2OS GPR35-bla; measurement = EC50; result = inactive
Structure (SMILES) = CC(=O)NC(Cc1c[nH]c2ccccc12)C(=O)NC(CCC(=O)C=[N+]=[N-])C(=O)O (stereo not shown); tested on = GLS (Homo sapiens, UniProt O94925); assay = enzyme activity, inhibitor, [3H]-glutamine radiometric; conditions = concentration not given, intact compound; measurement = activity class; result = inactive
Structure (SMILES) = CC(C)C[C@H](NC(=O)OCc1cccc(Cl)c1)C(=O)N[C@H](C=O)C[C@@H]1CCNC1=O; tested on = feline coronavirus; system = CRFK, FIPV-1146; how to read = baseline: CC50 over EC50; measurement = therapeutic index; result = > 3750
Structure (SMILES) = COc1cc(OC)cc(-c2cc(NC(C)=O)[nH]n2)c1; tested on = crk3 with CYC6; assay = IMAP fluorescence polarisation; conditions = 30 µM, with L. major CYC6; measurement = inhibition; result = 0%
Structure (SMILES) = O=C(N[C@@H](CC1CCCCC1)C(=O)N[C@@H](C[C@@H]1CCNC1=O)C(=O)C(=O)NC1CC1)OCc1cccc(Cl)c1; tested on = CRFK; assay = cell growth or viability; conditions = 36 h; measurement = CC50; result = > 150 µM
Structure (SMILES) = O=C(C=Cc1ccc(Cl)cc1)c1cccc(O)c1; tested on = MED23 with ELF3; assay = SEAP reporter gene, inhibitor; conditions = 10 µM, 12 h; measurement = inhibition; result = 80%
Structure (SMILES) = Cc1cc(Oc2ccc(-c3ccn4c(CC5CC5)nnc4c3C(F)(F)F)cc2F)ccn1; tested on = GRM2; assay = agonist; conditions = no glutamate; measurement = Emax; result = 77 ± 12%
Structure (SMILES) = O=C1Nc2ccc(S(=O)(=O)Nc3ccccc3)cc2C1=C1CCCC1; tested on = CDK8 (Homo sapiens, UniProt P49336); assay = enzyme activity, inhibitor; conditions = 10 µM; measurement = inhibition; result = 93%
Structure (SMILES) = COc1ccc(C=CC(=O)c2ccccc2O)c2ccccc12; tested on = MED23 with ELF3; assay = SEAP reporter gene, inhibitor; conditions = 10 µM, 12 h; measurement = inhibition; result = 80%
Structure (SMILES) = Clc1c(-c2ccc(Oc3ccccc3)cc2)ccn2c(CC3CC3)nnc12; tested on = GRM2; assay = GTPγS binding, positive allosteric modulator; conditions = together with: EC20 glutamate; how to read = baseline: control glutamate response; measurement = Emax; result = 225 ± 12%
Structure (SMILES) = COc1ccc(C=CC(=O)c2cccc(O)c2)c2ccccc12; tested on = MED23 with ELF3; assay = SEAP reporter gene, inhibitor; conditions = 10 µM, 12 h; measurement = inhibition; result = 70%
Structure (SMILES) = O=C(O)COc1ccc(Br)cc1/C=N/NC(=O)c1ccc(Cl)cc1; assay = Racine scale 0-5; system = male mice, pilocarpine-induced seizures; conditions = oral, 20 mg/kg, 1.5 h after pilocarpine, unit not given, together with: pilocarpine 300 mg/kg i.p.; how to read = higher = more severe; measurement = seizure severity; result = 1.9 ± 0.32

Repeated from above:
Structure (SMILES) = COc1ccc(C=CC(=O)c2ccccc2O)cc1; tested on = MED23 with ELF3; assay = SEAP reporter gene, inhibitor; conditions = 10 µM, 12 h; measurement = inhibition; result = 90%
Structure (SMILES) = Cc1nc(Cl)cnc1C#N; tested on = TP53 M133L/N239Y/N268D/V203A/Y220C DNA-binding domain; assay = DSF; conditions = 1 mM, 4 h, 20 °C; measurement = delta Tm; result = 1.28 °C
Structure (SMILES) = Cc1cc(NC(=O)c2ccc(Oc3ccccc3)cc2)[nH]n1; tested on = crk3 with CYC6; assay = IMAP fluorescence polarisation; conditions = 30 µM, with L. major CYC6; measurement = inhibition; result = 7%
Structure (SMILES) = O=C(C=Cc1cccs1)c1ccccc1O; tested on = MED23 with ELF3; assay = SEAP reporter gene, inhibitor; conditions = 10 µM, 12 h; measurement = inhibition; result = 50%
Structure (SMILES) = CC[C@H](C)[C@@H]1NC(=O)[C@H](CC(C)C)NC(=O)[C@H](Cc2ccccc2)NC(=O)[C@H](Cc2ccccc2)NC(=O)[C@@H]2CCCN2C(=O)[C@@H]2CCCN2C(=O)[C@H](C(C)C)NC(=O)[C@H](CC(C)C)NC(=O)[C@H]([C@@H](C)CC)NC1=O; tested on = SK-BR-3; assay = LDH release; conditions = 400 µg/mL, 24 h; measurement = cytotoxicity; result = 75%
Structure (SMILES) = COc1ccc2nc3c(cc2c1)c(=O)cc(C(F)(F)F)n3-c1ccc(Cl)cc1; tested on = iron(III); assay = UV-Vis titration; conditions = stoichiometry 1; measurement = binding constant; result = 30 M⁻¹
Structure (SMILES) = O=C(O)C(=O)Cc1ccc(O)cc1; tested on = GPR35; assay = β-arrestin translocation, agonist, Tango reporter; system = U2OS GPR35-bla; measurement = EC50; result = inactive
